Measurements gathered from unrelated publications.
Numbered parts are unrelated; each lists some results of a single study.

Sample 1 — technique: RNA Bind-n-Seq; molecule type: RNA; medium: in vitro; concentration: 365 nM; reference: no-protein control; direction: higher = stronger binding
Target: RNA binding protein fox-1 homolog 2, RRM domain, GST-SBP tag (RBFOX2, Homo sapiens, UniProt O43251-10, residues 100-194)
Notes: natural RNA segment, single round, ends assumed
Target sequence (chain): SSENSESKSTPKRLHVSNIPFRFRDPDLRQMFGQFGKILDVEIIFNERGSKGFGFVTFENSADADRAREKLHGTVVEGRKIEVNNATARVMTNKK
Sequence	RBNS enrichment (R)
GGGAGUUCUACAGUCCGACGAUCCUUUGGUUUUCUGUGGCAGCGUCUCCCUUCUCAUUGUUUCUCUGUGUUUUAGUGGGGAUAGUACCAUAUGUGAUAUAACCUAGAAGCACUUGUCUCUGCUCUUAUGAAACUGGAAUUCUCGGGUGCCAA	0.368
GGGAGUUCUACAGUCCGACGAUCGCAUUAUUCUUCAGAAGGGGACCUGUUUUCUUCAAGGGAAGAAACACUCUUAUUCCCAAACUACAGAAUAAUGUGUUAAACAUGCUAAAUAGUUCUAUCAGGAAAACAAAUGGAAUUCUCGGGUGCCAA	0.514
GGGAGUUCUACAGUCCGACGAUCCUCCUUGGUUAUCAUCCACUGCAGCUGCUAGUUAGAAAGGUUUGGAGGGAUGACUUUUAGUAAAUCAUGGGGAUUUUAUUGAUUUAUUUUCACUUUUGGGAUUUUGUGGGUGGAAUUCUCGGGUGCCAA	1.6
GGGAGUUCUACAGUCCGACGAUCUACUUCCUGGAGGCAAAAUCCUUGGAUUUACUAACAUGAUGAUUUACCUUUUCUUCACCGUUGUCGUUACAUUGUUAGAAAAGCAACAGGAAAAAAUCCAAUUCAUUUGAUGGAAUUCUCGGGUGCCAA	0.306
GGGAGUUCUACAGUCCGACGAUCUCAAACUGCUGGAAAUCUCAAAACUGUACUGUCUUUAUUUUUGUAUAUUGUAUUUAUAUAUAAAAAGAAACGUCUACGUAUGCAUGCUAAAUUAUUAUUUAGCUUCUCCCUGGAAUUCUCGGGUGCCAA	1.5
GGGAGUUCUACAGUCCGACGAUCGGCAUUUUUUUUUAAUCACUGUUUAUUUUUCUGUUUGCGGCCCAGGAAGCAGUGGGAGGUGGUGGCAGAUAUGCUUUGCAUAUGGAUUGUUAUGUUUUUAUUUGGGCAAGUGGAAUUCUCGGGUGCCAA	0.831
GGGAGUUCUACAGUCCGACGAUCGAGAAAGGACACUGGAUUGAGCUUCUGAAAUGCCACUGGUAGCUCUGUAACAUGGGAAUGGAAAUGUCCCUCUCUGGGCCUGUGUUUCUUUGUGUGUCCAGUGAAGGAACUGGAAUUCUCGGGUGCCAA	0.988
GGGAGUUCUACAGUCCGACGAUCCGCCCUUAGAAGCAGGGAUUGCAAAGCUUAGGGCCCCCGUGCCAAGCAAAGACCAAAGAUGCAUCAGCUUAAAGAGAAGUCAGACGACAAUGACGAAUCAUUCCAAGGCCUGGAAUUCUCGGGUGCCAA	0.348
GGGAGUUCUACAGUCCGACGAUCAAAACUUCUUUUAAACCUCACCUUUGUGGGGUUUUUGGAGAAGGUUAUCAAAAAUUUCAUGGAAGGACCACAUUUUAUAUUUAUUGUGCUUCGAGUGACUGACCCCAGUGUGGAAUUCUCGGGUGCCAA	0.36
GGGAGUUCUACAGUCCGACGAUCGUUGACAGGUGGGCCCAGUGAACUUUUCCAGUAAAUGAAGCAAGCACUGAAUAAAAACCUCCUGAACUGGGAACAAAGAUCUACAGGCAAGCAAGAUGCCCACACAACAGUGGAAUUCUCGGGUGCCAA	1.11
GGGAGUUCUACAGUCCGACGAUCUGAGCCCUGGGUGGCCGUGCAGUUUCAGUUAUUUUUAGCAGUGCACUGUUUGAGGAAAAAUUACCUGUCUUGACUUCCUGUGUUUAUCAUCUUAAGUAUUGUAAGCUGCUUGGAAUUCUCGGGUGCCAA	0.455
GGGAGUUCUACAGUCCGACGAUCAUGCAUGCUUAUGUGAGCAGCUGGACUCCCGCUCAGUACAGGCCUGGAACCCCAGGCCAAAUGUAUGCUCUGCUUCCUUGAGUGCUGUAAGAGUUCCCACUGGCCUUGCUUGGAAUUCUCGGGUGCCAA	23.6

Sample 2 — technique: aptamer microarray, sandwich; molecule type: DNA with 2'F-ANA; medium: in vitro; concentration: 200 nM; added: Cy3 exosite-II aptamer, 400 nM; direction: higher = stronger binding; sequence: GGTTGGTGTGGTTGG
Target: Prothrombin, mature alpha-thrombin (F2, Homo sapiens, UniProt P00734)
Notes: whole 15-mer aptamer, many near background
Modification	mean fluorescence intensity [a.u.]
2'F-ANA at 2 3 6 9 10 14 15	237
2'F-ANA at 1 2 4 7 9 14 15	294
2'F-ANA at 2 4 5 7 8 10 11 13 14 15	48.2
2'F-ANA at 1 2 3 4 5 6 7 8 9 10 11 12 13	50.1
2'F-ANA at 3 4 5 8 9 10 11 13	56.2
2'F-ANA at 1 5 6 7 10 11 12 13	49.5
2'F-ANA at 4 5 6 7 8 12 14	46.6
2'F-ANA at 3 5 6 7 14	49.2
2'F-ANA at 1 3 6 12 14 15	111
2'F-ANA at 1 4 8 13 14 15	53.1
2'F-ANA at 1 5 6 7 10 12 15	47.2
2'F-ANA at 3 8 9 10 14 15	395
2'F-ANA at 6 8 10 11 15	134
2'F-ANA at 1 4 5 6 9 10 11 12 13 14	47.3
2'F-ANA at 2 3 6 9 10 11 12 14 15	261
2'F-ANA at 6 9	414
2'F-ANA at 1 3 4 5 7 8 9 13 15	50.3
2'F-ANA at 4 5 11 12 15	98
2'F-ANA at 2 3 5 6 11 14 15	47.3
2'F-ANA at 2 3 8 12 13 15	908
2'F-ANA at 1 4 6 7 10 12 14 15	56.8
2'F-ANA at 1 2 3 7 9 12 13 15	326
2'F-ANA at 1 2 3 5 6 10 12 13 15	182
2'F-ANA at 4 5 10 11 13	49.3
2'F-ANA at 2 3 5 7 8 9 10 12 14 15	75.7

Sample 3 — technique: universal PBM; molecule type: double-stranded DNA, one strand shown; medium: in vitro; concentration: not given; direction: higher = stronger binding
Target: Sal-like protein 4, full length isoform B (SALL4, Homo sapiens, UniProt Q9UJQ4-2, residues 1-616)
Notes: 8-mer, flanks averaged, mean of replicates
Sequence	E-score
CTGCCAAG	-0.0452
GGTACCGA	-0.187
ACGGGGGC	-0.326
CTGTGACC	-0.163
TATCGAAA	0.229
AGACAAGA	0.107
CACTACCA	0.00665
AGTAGAGG	-0.195
AATGGCTC	-0.0249
TCGGCCAA	-0.155
ATAACCCG	0.0272
GGCAGCCA	-0.158
CGACTCCG	-0.375
ACCTCGTG	0.036
CACAACCG	-0.0745
CCTCGCCC	-0.236
GTGTGAAC	-0.0439
CCATTCAC	-0.0442
AACCGGCG	-0.355
ACTTGATA	0.283
CAAGCCCC	-0.38
AGGATCAA	-0.015
GTCCGTGA	-0.179
ACGTCTTA	0.136

Sample 4 — technique: protein binding microarray; molecule type: double-stranded DNA, one strand shown; medium: in vitro; concentration: not given; reference: not given; direction: higher = stronger binding
Target: Histone acetyltransferase KAT6A, winged helix 1, GST fusion (KAT6A, Homo sapiens, UniProt Q92794, residues 1-85)
Notes: 8-mer, flanks averaged, mean of 2 arrays, mostly near background
Residues (chain): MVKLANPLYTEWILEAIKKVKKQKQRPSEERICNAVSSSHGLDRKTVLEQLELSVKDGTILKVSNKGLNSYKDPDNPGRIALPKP
Sequence	E-score
CCGCCTAG	0.237
ACGTTACC	0.0715
ATTCACTG	-0.157
ATGTAAGG	-0.178
GTCCTCAC	-0.0315
AGTGCCTC	-0.075
ATGTCTGA	-0.155
CCGAGGGA	-0.0301
CATGGCGA	-0.0119
ATCCATGA	-0.29
GATAGCAA	-0.286
CACAGGGA	-0.0775
ATACAATA	0.0279
TCGCTTAA	0.111
AGTCTCGC	-0.0621
GAATGCTA	-0.0968
GGTATCCA	0.0666
AATAATCA	0.0383
ACTACTTC	-0.02
ACCGGCAG	0.293

Sample 5 — technique: protein-binding microarray; molecule type: double-stranded DNA, one strand shown; medium: in vitro; concentration: not given; direction: higher = stronger binding
Target: Max-binding protein MNT, bHLH-zipper, MAX partner unstated (MNT, Homo sapiens, UniProt Q99583, residues 220-300)
Notes: k-mer, scored over probes, only values ≥0.25
Construct (chain): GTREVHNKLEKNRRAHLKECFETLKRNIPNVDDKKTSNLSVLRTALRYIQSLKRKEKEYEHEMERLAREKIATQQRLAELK
Sequence	E-score
CGCGCGCA	0.283
CATGTCAC	0.343
ACGCTACG	0.339
ACGTGTTG	0.404
ACCGCATG	0.447
AGCGCACG	0.392
ACGTGTAC	0.444
AACGCATG	0.448
CACGTTGA	0.435
AGGCACAT	0.35
CACGAGCA	0.296
CCTCACGC	0.308
CGTGTTCA	0.39
ATGGCACG	0.35
AGCACGCG	0.458
ACCACACG	0.362
CGCGGCAC	0.277
CGTGTTAC	0.35
